Results pooled from the literature.
A part holds a random share of what one study measured.
Sequence of UniProt P06213 (whole entry, looked up): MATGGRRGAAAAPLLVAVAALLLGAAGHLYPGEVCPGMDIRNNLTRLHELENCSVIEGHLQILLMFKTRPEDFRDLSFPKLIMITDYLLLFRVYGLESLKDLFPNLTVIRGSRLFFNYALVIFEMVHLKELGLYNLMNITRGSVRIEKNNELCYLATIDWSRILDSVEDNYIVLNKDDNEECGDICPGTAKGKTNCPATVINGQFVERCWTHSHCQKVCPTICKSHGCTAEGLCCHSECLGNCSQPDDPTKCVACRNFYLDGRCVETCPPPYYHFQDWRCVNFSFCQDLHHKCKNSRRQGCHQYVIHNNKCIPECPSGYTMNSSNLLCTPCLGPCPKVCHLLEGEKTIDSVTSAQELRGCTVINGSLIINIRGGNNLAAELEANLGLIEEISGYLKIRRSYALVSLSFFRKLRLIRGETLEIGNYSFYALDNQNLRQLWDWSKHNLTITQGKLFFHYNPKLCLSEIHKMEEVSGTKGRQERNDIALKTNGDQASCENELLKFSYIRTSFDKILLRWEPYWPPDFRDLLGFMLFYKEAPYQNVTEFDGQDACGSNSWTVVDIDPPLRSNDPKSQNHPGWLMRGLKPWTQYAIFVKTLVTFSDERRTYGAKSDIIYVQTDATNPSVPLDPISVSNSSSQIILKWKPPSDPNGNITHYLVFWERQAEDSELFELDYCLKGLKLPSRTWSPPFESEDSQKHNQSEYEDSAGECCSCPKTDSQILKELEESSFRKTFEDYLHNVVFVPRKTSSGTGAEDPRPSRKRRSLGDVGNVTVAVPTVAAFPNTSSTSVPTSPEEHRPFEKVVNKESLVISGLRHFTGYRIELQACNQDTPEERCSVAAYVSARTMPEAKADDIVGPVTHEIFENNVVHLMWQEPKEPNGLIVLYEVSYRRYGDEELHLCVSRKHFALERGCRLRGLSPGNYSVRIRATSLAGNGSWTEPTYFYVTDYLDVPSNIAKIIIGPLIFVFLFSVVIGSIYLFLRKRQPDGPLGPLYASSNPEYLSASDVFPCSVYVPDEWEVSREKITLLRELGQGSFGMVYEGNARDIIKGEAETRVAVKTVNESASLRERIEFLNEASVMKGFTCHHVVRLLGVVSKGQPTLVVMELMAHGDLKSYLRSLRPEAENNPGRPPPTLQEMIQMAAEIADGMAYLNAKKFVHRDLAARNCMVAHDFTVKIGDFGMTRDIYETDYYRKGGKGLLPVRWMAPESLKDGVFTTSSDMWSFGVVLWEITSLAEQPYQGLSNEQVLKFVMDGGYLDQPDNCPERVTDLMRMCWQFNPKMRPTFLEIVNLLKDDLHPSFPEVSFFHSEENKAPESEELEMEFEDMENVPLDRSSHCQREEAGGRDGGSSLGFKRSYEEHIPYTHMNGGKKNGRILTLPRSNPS
Sequence of UniProt Q08881 (whole entry, looked up): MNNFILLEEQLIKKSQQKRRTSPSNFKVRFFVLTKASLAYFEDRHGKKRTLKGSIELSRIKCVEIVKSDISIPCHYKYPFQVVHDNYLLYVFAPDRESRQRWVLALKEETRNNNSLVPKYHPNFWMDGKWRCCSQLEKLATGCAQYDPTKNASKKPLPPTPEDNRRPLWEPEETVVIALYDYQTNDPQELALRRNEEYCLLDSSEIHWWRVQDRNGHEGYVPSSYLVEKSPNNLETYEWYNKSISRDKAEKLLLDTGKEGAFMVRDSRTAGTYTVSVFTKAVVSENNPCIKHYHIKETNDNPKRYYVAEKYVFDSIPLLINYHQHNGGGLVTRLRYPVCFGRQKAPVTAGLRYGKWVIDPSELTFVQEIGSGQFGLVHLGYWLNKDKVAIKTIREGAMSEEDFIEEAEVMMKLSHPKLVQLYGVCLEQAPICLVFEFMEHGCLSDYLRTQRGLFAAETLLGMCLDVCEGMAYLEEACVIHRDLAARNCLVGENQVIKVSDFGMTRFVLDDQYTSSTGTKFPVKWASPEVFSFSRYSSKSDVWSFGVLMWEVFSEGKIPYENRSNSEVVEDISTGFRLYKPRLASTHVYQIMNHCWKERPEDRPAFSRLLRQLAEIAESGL
Sequence of UniProt Q12851 (whole entry, looked up): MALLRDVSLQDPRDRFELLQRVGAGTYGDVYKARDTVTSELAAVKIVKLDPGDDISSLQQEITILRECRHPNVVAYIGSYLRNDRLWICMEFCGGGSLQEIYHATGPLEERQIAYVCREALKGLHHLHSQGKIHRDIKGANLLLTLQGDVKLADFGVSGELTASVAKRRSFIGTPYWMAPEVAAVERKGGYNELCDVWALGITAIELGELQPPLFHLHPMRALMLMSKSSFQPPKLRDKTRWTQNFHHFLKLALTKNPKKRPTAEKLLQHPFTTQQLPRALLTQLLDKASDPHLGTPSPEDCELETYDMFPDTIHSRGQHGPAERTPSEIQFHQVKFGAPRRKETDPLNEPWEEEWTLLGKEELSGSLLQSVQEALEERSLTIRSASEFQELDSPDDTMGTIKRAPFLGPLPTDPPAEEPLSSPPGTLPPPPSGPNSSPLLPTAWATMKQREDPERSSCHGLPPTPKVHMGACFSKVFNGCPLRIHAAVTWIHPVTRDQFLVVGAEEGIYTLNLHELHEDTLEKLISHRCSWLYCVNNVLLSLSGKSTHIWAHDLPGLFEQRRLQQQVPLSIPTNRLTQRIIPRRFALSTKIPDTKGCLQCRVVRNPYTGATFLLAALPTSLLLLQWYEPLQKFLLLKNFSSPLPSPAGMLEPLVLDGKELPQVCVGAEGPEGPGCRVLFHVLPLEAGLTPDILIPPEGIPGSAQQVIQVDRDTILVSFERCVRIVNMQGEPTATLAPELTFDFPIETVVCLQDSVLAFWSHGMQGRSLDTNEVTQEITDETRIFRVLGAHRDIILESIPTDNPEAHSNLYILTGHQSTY

Set 1
Target: Calcium/calmodulin-dependent protein kinase type II subunit alpha (CAMK2A, Homo sapiens, UniProt Q9UQM7)
Sequence of UniProt Q9UQM7 (whole entry, looked up): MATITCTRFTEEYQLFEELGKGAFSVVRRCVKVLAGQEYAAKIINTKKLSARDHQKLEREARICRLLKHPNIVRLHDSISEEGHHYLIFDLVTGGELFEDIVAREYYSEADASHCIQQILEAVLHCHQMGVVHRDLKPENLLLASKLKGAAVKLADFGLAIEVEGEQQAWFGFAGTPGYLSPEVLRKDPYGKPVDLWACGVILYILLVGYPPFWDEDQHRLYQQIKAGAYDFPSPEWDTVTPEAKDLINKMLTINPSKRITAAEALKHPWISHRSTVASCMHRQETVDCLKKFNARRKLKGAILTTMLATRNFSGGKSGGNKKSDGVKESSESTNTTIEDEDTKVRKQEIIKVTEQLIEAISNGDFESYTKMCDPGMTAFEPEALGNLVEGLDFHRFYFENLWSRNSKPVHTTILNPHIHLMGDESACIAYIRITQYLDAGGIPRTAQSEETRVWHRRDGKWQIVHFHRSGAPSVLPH
Read-out: enzyme activity
Action: inhibitor
Tested at: 0.5 µM
Baseline: control
Compound	remaining activity
CCN(CC)CCNC(=O)c1c(C)[nH]c(/C=C2\C(=O)Nc3ccc(Cl)cc32)c1C	3.6%
COc1cc2ncnc(Nc3ccc(O)c(Br)c3)c2cc1OC	98%
Cc1cn(-c2cc(NC(=O)c3ccc(C)c(Nc4nccc(-c5cccnc5)n4)c3)cc(C(F)(F)F)c2)cn1	96.1%
c1ccc(-c2cnc(Nc3ccc(OCCN4CCCC4)cc3)s2)cc1	62.9%
O=C(Nc1cccc(Nc2nccc(Nc3cccc(C(F)(F)F)c3)n2)c1)C1CC1	98%
CN(C)C[C@H]1CCn2c(c(C3=C(c4cn(C)c5ccccc45)C(=O)NC3=O)c3ccccc32)C1	100%
O=C1C(Cl)=C(N2C(=O)CCC2=O)C(=O)c2ccccc21	89.6%
CCOc1nc(NC(=O)Cc2cc(OC)ccc2OC)cc(N)c1C#N	104%
Nc1cccc(-c2cc3c(Oc4cccc(O)c4)ncnc3[nH]2)c1	115%

Set 2
SMILES: CNC(=O)c1ccc(Nc2ncc(C(F)(F)F)c(NCc3nccnc3N(C)S(C)(=O)=O)n2)cc1
Read-out: cell-free assay
Technique: competition with immobilised ligand
Tested at: 0.1 µM
target	remaining binding [%]
Tyrosine-protein kinase ABL1, phosphorylated (ABL1, Homo sapiens, UniProt P00519, H396P)	100
Protein kinase C delta type (PRKCD, Homo sapiens, UniProt Q05655)	100
Dual specificity tyrosine-phosphorylation-regulated kinase 1B (DYRK1B, Homo sapiens, UniProt Q9Y463)	79
Tyrosine-protein kinase ITK/TSK (ITK, Homo sapiens, UniProt Q08881)	80
Cyclin-dependent kinase-like 1 (CDKL1, Homo sapiens, UniProt Q00532)	82
Insulin receptor (INSR, Homo sapiens, UniProt P06213)	91
Mitogen-activated protein kinase kinase kinase kinase 2 (MAP4K2, Homo sapiens, UniProt Q12851)	100

Set 3
Target: Synaptic vesicular amine transporter (SLC18A2, Homo sapiens, UniProt Q05940)
Sequence of UniProt Q05940 (whole entry, looked up): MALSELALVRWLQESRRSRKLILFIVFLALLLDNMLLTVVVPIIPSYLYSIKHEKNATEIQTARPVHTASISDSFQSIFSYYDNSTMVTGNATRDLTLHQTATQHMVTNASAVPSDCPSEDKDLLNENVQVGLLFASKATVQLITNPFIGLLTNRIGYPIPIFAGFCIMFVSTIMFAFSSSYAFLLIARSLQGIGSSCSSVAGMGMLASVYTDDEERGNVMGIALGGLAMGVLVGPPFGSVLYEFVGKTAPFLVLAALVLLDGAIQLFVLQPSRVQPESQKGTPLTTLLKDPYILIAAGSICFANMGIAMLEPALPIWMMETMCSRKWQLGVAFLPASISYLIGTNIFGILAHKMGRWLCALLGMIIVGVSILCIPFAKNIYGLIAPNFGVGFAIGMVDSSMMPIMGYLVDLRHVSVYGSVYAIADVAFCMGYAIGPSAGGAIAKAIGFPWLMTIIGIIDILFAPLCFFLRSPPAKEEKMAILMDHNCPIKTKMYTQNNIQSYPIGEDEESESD
Read-out: transporter uptake
Action: inhibitor
SMILES	IC50 [µM]
CCCc1nn(C)c2c(=O)[nH]c(-c3cc(S(=O)(=O)N4CCN(C)CC4)ccc3OCC)nc12	3.96
CN(C)CCC=C1c2ccccc2CCc2ccccc21	9
COc1c(OCCCN2CCOCC2)ccc2c1N=C(NC(=O)c1cnc(N)nc1)N1CCN=C21	11.1
Oc1ccc(CCNCCCCCCNCCc2ccccc2)cc1O	0.041

Set 4
Target: Beta-1 adrenergic receptor (ADRB1, Homo sapiens, UniProt P08588)
Sequence of UniProt P08588 (whole entry, looked up): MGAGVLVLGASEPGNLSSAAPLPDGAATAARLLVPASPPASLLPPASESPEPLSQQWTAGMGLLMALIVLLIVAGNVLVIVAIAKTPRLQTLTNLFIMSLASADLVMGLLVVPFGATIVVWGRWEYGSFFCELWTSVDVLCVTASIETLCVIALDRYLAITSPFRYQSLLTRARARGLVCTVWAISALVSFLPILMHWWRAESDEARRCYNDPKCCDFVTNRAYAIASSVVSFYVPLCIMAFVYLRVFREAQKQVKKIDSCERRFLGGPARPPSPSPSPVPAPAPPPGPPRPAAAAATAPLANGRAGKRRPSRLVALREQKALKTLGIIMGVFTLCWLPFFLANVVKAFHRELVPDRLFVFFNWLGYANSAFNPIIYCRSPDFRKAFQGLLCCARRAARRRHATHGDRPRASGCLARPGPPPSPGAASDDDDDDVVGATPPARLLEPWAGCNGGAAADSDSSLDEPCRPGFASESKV
Action: agonist
Compound	EC50
CN(CC(O)COc1cccc(CNCCOc2ccccc2)c1)C1CCCCC1 (centres unmarked)	≥ 100 µM
Cc1nn2cc(CCNCC3(O)CNCCOC3)nc2s1 (centres unmarked)	≥ 100 µM
COc1ccc([S+](=O)([O-])N2CCN(c3ccccc3OC)CC2)cc1C	≥ 100 µM
O=C(Nc1ccc(-c2csc3c(=O)cc(N4CCOCC4)oc23)cc1)c1ccc(F)c(F)c1Nc1ccc(I)cc1F	≥ 100 µM
COc1ccccc1C(=O)Nc1ccc([C@@H](O)[C@H]2COCC(=O)N2Cc2ccc(F)cc2)cc1	≥ 100 µM
OC(CNc1ncccn1)c1ccccc1 (centres unmarked)	≥ 100 µM

For quick reference, copied from above (set 1):
Compound	remaining activity
O=C(Nc1cccc(Nc2nccc(Nc3cccc(C(F)(F)F)c3)n2)c1)C1CC1	98%
Nc1cccc(-c2cc3c(Oc4cccc(O)c4)ncnc3[nH]2)c1	115%
Cc1cn(-c2cc(NC(=O)c3ccc(C)c(Nc4nccc(-c5cccnc5)n4)c3)cc(C(F)(F)F)c2)cn1	96.1%
CN(C)C[C@H]1CCn2c(c(C3=C(c4cn(C)c5ccccc45)C(=O)NC3=O)c3ccccc32)C1	100%
